Results collected from several papers.
Each numbered part is a random draw from the data of one study; scales do not carry over between parts. Changes are numbered by the printed parent chain.
Chain of UniProt O23661 (whole entry, looked up): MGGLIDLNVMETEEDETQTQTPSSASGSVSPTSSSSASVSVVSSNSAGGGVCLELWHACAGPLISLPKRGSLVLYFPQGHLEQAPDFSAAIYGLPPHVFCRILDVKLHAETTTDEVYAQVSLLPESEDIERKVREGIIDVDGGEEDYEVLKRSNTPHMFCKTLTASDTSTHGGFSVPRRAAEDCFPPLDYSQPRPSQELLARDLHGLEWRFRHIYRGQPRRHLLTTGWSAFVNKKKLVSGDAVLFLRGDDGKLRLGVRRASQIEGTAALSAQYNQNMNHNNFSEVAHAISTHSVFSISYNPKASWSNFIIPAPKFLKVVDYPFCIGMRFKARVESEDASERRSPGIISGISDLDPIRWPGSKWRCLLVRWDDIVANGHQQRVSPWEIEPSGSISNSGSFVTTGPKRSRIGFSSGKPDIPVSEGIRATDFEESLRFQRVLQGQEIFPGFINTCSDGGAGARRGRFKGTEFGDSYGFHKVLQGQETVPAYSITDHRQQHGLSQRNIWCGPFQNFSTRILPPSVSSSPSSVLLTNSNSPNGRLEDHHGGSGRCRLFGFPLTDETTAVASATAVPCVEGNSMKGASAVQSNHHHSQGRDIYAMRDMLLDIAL

Series 1
Target: Centromere-binding protein 1, full length, N-terminal tag (CBF1, Saccharomyces cerevisiae, UniProt P17106, residues 1-351)
Chain of UniProt P17106 (whole entry, looked up): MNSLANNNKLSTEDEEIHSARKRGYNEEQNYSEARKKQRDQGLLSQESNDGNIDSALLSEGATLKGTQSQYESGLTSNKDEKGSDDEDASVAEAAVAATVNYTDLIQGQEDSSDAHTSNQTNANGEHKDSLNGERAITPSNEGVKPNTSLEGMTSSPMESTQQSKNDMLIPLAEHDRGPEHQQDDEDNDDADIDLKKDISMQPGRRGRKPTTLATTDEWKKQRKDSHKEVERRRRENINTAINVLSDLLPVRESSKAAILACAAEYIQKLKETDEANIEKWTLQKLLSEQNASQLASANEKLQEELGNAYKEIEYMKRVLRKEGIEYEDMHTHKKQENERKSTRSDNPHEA
Method: protein-binding microarray
Molecule type: double-stranded DNA, one strand shown
Sample: in vitro
Concentration: 0.8 µM
Setting: whole 60-bp probe, no competitor
Direction: higher = stronger binding
All sequences stand within: … GTCTTGATTCGCTTGACGCTGCTG
Oligonucleotide | fluorescence intensity [a.u.]
CTACATTGAATAAGTAACATCATGTGTCATTTTTTC | 1340
CTAGGGAATATAAGTATGGTGATGAGTATTACCTTC | 585
CTAACCACCATAGGCACCACCACTGTTTGTGTATTC | 498
GAAGTTTTAAAATGTCATGCGTTTTCGTCATTTTAG | 654
GAAATCATAATCATAATCGTGATATTGTACCAGTAG | 569
CTACTTGTAATCGTTCATGTGGCAACTGTTTCATTC | 584
CTACCACCAGAAAGTCACCTGCTCTCTTAATCATTC | 2670
CTAGCGTACTCTTGTGACGTACCAAAGCGCTTATTC | 530
CTACTCCGCCGTGTTGGTGATGCAGTTTTCTCTTTC | 511
CTAAGTGTGTGTAATTGCGTGTAGCTTGAAAGATTC | 525
CTAGTGGTCAGCAACCACGCAATACATCACATATTC | 568
CCTAACTACTATACCCACATGACATAGCTTCGTACA | 945
CTATAGGAGTATAAGAGCGTGGGGAAACACAAATTC | 487
CTACACCTTCCTTAGCACGGGTTCTTGCTGTCTTTC | 745
GAAACCGATCCCAATGGTGACATGCAAAGAAAATAG | 572
GAAAAAAATGCGGGTCACGAAAGGGGTACCGAGTAG | 578
GAACCCCCTGAAAATGTGGTGTGGTTACTAAGCTAG | 516
GAAGAGGCGTTCCAACTGATGATGGATACTGCGTAG | 497
CTAACCCTTGTCGGTCACGTGAGCAAAAATACTTTC | 39300
GAAGGGTTAAAGAGTCACGGTGAAATTTGAATTTAG | 655
GAAATCAATTCCCATCACGTACCTTGCTTTCTATAG | 698
CTATTCGCGGCGTTACACGTGAGTTCATATTATTTC | 3650
GAACCACGATGATCGCACGTGCCGGCATTTATATAG | 8290
GAACGGTGAGAACGTGATGTGATAGCCGTTACATAG | 2100
GAACGGCCAATGTGACACCAGTTCACTCGGCAATAG | 629

Series 2
Target: ABI1, truncated, D143A, DHFR fusion (Arabidopsis thaliana)
Method: DHFR PCA, deep sequencing
Sample: yeast
Setting: methotrexate growth selection, single substitutions
Together with: (+)-ABA 58 µM
Baseline: wild-type fitted maximum
Direction: higher = stronger binding
Starting sequence: PYL1, truncated, DHFR fusion (Arabidopsis thaliana); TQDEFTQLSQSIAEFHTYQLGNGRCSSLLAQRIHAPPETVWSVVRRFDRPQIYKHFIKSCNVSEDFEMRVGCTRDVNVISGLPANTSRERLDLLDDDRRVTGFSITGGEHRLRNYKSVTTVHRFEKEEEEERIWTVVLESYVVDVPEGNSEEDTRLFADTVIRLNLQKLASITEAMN; partner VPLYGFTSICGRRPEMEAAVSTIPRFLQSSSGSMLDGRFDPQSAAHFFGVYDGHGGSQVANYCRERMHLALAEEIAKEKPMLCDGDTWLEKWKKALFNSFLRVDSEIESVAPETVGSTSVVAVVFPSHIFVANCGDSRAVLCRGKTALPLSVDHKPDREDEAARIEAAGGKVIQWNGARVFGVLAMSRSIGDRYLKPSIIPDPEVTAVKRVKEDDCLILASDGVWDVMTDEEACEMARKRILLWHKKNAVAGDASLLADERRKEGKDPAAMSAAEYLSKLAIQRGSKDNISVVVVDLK
Substitution | relative binding score [%]
R132F | 89.1
D48G | 32
I57C | 45
E174C | 68.8
S11P | 81.4
E127V | 91.6
T154L | 36.1
N22E | 95.5
V137P | -1.8
G107D | 74.8
D75P | -2.85
S27E | 33.2
I162E | 3.84
Y18D | 53.7
Y18N | 76.4
A175R | 84.4
R88P | -8.15
W41F | 13.3
D153K | -3.96
A13P | 34.7
I57G | 3.22
T86A | 77.4
V44C | 62.3
Q31A | 42.6
C72G | 65.7

Series 3
Target: Ras GTPase-activating protein-binding protein 1, C-terminal RGG region (G3BP1, Homo sapiens, UniProt Q13283)
Chain of UniProt Q13283 (whole entry, looked up): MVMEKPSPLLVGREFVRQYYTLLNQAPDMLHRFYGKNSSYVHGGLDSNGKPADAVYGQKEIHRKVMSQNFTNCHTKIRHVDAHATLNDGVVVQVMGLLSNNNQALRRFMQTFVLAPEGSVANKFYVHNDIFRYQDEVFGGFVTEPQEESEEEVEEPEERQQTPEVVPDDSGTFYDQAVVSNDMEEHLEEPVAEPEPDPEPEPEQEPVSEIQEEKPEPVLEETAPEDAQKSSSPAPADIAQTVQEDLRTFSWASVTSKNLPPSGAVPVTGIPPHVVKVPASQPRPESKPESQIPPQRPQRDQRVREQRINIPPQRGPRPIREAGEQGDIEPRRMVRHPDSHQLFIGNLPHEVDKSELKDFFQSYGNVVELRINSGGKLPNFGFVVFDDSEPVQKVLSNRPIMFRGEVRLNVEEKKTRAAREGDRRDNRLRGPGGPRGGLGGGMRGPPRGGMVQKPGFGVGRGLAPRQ
Method: RNA Bind-n-Seq
Molecule type: RNA
Sample: in vitro
Concentration: 1 µM
Setting: whole 134-nt RNA, ends assumed
Together with: 150 mM KCl
Baseline: input library
Direction: higher = stronger binding
All sequences stand within: GGGAGUUCUACAGUCCGACGAUC … UGGAAUUCUCGGGUGUCAAGG
Oligonucleotide | log2 enrichment
UUUUCAAAAUAAGGAGCUUCCCAGACCUGUGUUAGAAGGGCAGCAGUCAGAGAGGACCCCAAAUAAUCGCCCUGAUGCCCCUAAGGAGAA | -1.57
ACCAUGCAGGUGGGCAUCUUUGGGAAGUGGGGCAAGGGGGGGAUAAAAAGGGGGGUAACACUUUGGGAACAGGUGGUCCCAGGUCGUUUC | -0.688
UAACUCUAGAGGAGGAUCUGAUGGAUAUGGCAGUGGACGUGGAUUUGGGGAUGGCUAUAAUGGGUAUGGAGGAGGACCUGGAGGUGGCAA | -0.0227
UCAAGUCCUGUGCUACACAUCGUAUGUACCGAAUCGGGGAAGGAAGGGGAAGGGAAAGUAUUAUGUUACGCCGUUCGGAUCUGCACUUCC | 0.875
UAACUUUAGAGGAGGAUCUGAUGGAUAUAGCAGUGGACGUGGAUUUGGGGAUGGCUAUAAUGGGUAUGGAGGAGGACCUGGAGGUGGCAA | -1.16
ACCAUGCAGGUGGGCAUCUUUGGGAAGUGGGGCAAGGGGGGGAUAGGGAGGGGGGUAACACUUUGGGAACAGGUGAUCCCAGGUCGUUUC | 2.13
CCUGUGCUACACAUCGUAUGUACCGAAUCGGGAAAAAAGGGGAAAAAAGGGGAAAAAAGGAAAGUAUUAUGUUACGCCGUUCGGAUCUGC | -1.69
CAAGUCCUGUGCUACACAUCGUAUGUACCGAAUCGGGGCCGGGGCCGGGCCGGGGAAAGUAUUAUGUUACGCCGUUCGGAUCUGCACUUC | -0.685
UCAAGUCCUGUGCUACACAUCGUAUGUACCGAAUCGGAGGUUUUUGGAAAAAGGAAAGUAUUAUGUUACGCCGUUCGGAUCUGCACUUCC | -1.52
UUUUUCCAGAGCUCACAACGACCUGGGGCUGAGGACAAUGUCCUCAAUGAGAUCGUGAGUAUCUUGCAGCCCACCCAGGUCCCUGAGCAG | -1.4
GCAGGAAGUAAAAACAAAUGGAAAUGCUUCGGAUAAUGGCAGGGGUGGGGGUUGCUAAGGAAAGGGUGGGAUGGGAGUGGGUAAAGAGUU | 1.7
UAACUUUAGAGGAGGAUCUGAUGGAUAUGGCAGUGGACGUGGAUUUGGGGAUGGCUAUAAUAGGUAUGGAGGAGGACCUGGAGGUGGCAA | -0.387
AGUCCUGUGCUACACAUCGUAUGUACCGAAUCGGGGUGGGGUGGGGUUUUUUUGGGGAAAGUAUUAUGUUACGCCGUUCGGAUCUGCACU | 1.34
GUCCUGUGCUACACAUCGUAUGUACCGAAUCAAAUUUUUUUAAAUUUUUAAAUUUAAAAAAGUAUUAUGUUACGCCGUUCGGAUCUGCAC | -2.61

Series 4
Target: CCND2, cyclin fold, Cln2 fusion (human)
Method: yeast growth competition, sequencing
Sample: yeast
Setting: weak parent motif
Baseline: not given
Direction: higher = stronger binding
Starting sequence: CDKN1A docking peptide (human); SKACRRLFGPVDS; partner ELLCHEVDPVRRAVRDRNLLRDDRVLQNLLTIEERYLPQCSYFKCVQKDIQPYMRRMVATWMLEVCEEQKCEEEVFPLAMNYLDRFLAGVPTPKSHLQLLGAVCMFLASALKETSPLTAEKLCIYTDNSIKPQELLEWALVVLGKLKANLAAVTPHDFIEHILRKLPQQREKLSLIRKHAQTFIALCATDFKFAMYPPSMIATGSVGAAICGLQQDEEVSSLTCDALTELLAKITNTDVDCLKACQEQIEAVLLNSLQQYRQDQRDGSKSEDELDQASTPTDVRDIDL
Substitution | normalised enrichment score
SKACRRLFGPDDS [V11D] | 1.72
SKACRQLFGPVDS [R6Q] | 0.562
SKACRRLFGMVDS [P10M] | 0.232
SKACRRLFIPVDS [G9I] | 0.665
SKACRRLQGPVDS [F8Q] | 0.285
SKACRRLFVPVDS [G9V] | 0.411
SKACRRGFGPVDS [L7G] | -0.285
SKAPRRLFGPVDS [C4P] | 0.163
SKACDRLFGPVDS [R5D] | -0.164
SKACRRLFRPVDS [G9R] | 0.471
SKACRELFGPVDS [R6E] | 0.45
SKACRRWFGPVDS [L7W] | 0.334
SKACRKLFGPVDS [R6K] | 0.558
SKACKRLFGPVDS [R5K] | -0.483
SKACRRLFGPVTS [D12T] | 0.254
SKACRRLFGPKDS [V11K] | -0.139
SKACRRLFGPPDS [V11P] | 0.169

Single results of other studies
B1: ARF2 727-859 (Arabidopsis thaliana, UniProt Q94JM3); chain TKTNSSRSCTKVHKQGIALGRSVDLSKFQNYEELVAELDRLFEFNGELMAPKKDWLIVYTDEENDMMLVGDDPWQEFCCMVRKIFIYTKEEVRKMNPGTLSCRSEEEAVVGEGSDAKDAKSASNPSLSSAGNS
Molecule | partner | assay | how to read | measurement | result
B1 (ARF2 727-859) | ETT (Arabidopsis thaliana, UniProt O23661) | two-hybrid | baseline: out of 4 tests, higher = firmer interaction | positive tests | 0

For quick reference, copied from above (series 4):
Substitution | normalised enrichment score
SKACRRLFGMVDS [P10M] | 0.232
SKACRRLFIPVDS [G9I] | 0.665
SKACRRLQGPVDS [F8Q] | 0.285
SKACRRLFVPVDS [G9V] | 0.411
SKACRRGFGPVDS [L7G] | -0.285
SKAPRRLFGPVDS [C4P] | 0.163
SKACDRLFGPVDS [R5D] | -0.164
SKACRRLFRPVDS [G9R] | 0.471
SKACRELFGPVDS [R6E] | 0.45
SKACRRWFGPVDS [L7W] | 0.334
SKACRKLFGPVDS [R6K] | 0.558
SKACKRLFGPVDS [R5K] | -0.483
SKACRRLFGPVTS [D12T] | 0.254
